# Measurements of several laboratories.
# Numbered parts are unrelated; each lists some results of a single study. Changes are numbered by the printed parent chain.

# Series 1
# Target: Histone acetyltransferase KAT6A, winged helix 2, GST fusion (KAT6A, Homo sapiens, UniProt Q92794, residues 85-181)
# Technique: protein binding microarray
# Form: double-stranded DNA, one strand shown
# Sample: in vitro
# Tested at: not given
# Notes: 8-mer, flanks averaged, mean of 2 arrays, mostly near background
# Baseline: not given
# Reading: higher = stronger binding
# Residues (chain): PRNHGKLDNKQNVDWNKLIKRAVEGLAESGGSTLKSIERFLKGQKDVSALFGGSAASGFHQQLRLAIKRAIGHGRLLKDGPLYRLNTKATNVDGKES
Sequence,E-score
CTTATTCC,-0.111
CACGTCGC,-0.0782
CCGCTCTA,0.029
TAGCGGCA,0.0965
ATCACGTA,-0.215
CTTCTGAA,0.0592
CTGATCAG,0.119
ACGAGAAA,0.22
AAGAGTTA,-0.0657
CATACACA,-0.141
AGCCGGCG,0.239

# Series 2
# Target: CCNB2, cyclin fold, Cln2 fusion (human)
# Technique: yeast growth competition, sequencing
# Sample: yeast
# Notes: weak parent motif
# Baseline: not given
# Reading: higher = stronger binding
# Starting sequence: ORC1 docking peptide (human); PRARKRLELGNLG
Variant,normalised enrichment score
PRARKRLELGNDG [L12D],0.252
PRARKRLELGYLG [N11Y],1.17
PRARKRLEQGNLG [L9Q],0.732
PRANKRLELGNLG [R4N],0.406
PRARKRLVLGNLG [E8V],0.692

# Series 3
# Target: Ras GTPase-activating protein-binding protein 1, full length (G3BP1, Homo sapiens, UniProt Q13283)
# UniProt Q13283, sequence (whole entry, looked up): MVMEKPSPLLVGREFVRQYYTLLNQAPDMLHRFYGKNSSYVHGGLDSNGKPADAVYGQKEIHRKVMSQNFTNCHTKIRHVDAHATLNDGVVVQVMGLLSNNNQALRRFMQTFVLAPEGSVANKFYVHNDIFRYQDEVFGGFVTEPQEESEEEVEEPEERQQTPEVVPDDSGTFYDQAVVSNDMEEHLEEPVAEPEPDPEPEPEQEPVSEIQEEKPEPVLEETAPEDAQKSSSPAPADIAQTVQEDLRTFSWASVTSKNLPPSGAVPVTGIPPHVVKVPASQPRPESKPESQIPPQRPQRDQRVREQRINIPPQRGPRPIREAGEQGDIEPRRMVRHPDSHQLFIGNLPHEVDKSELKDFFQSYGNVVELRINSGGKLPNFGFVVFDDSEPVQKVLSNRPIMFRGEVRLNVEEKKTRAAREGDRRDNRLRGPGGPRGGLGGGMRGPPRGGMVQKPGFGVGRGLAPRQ
# Technique: RNA Bind-n-Seq
# Form: RNA
# Sample: in vitro
# Tested at: 200 nM
# Notes: whole 134-nt RNA, ends assumed
# Together with: 150 mM LiCl
# Baseline: input library
# Reading: higher = stronger binding
# Library: 7-deaza-guanosine replaces G
# Constant ends, left off below: GGGAGUUCUACAGUCCGACGAUC … UGGAAUUCUCGGGUGUCAAGG
Sequence,log2 enrichment
GUCCUGUGCUACACAUCGUAUGUACCGAAUCGGGUUUUUUUGGGUUUGGGAAAAAGGGAAAGUAUUAUGUUACGCCGUUCGGAUCUGCAC,-1.16
UGUUUAAUAAACGUGAAGAUGUCUCGCAGUCCUGAUGCGAAGGAAGACCCUGUGGAGUGCCCUCUUUGCAUGGAGCCCUUGGAGAUAGAU,-1.48
CACAGACAACACGCACCCACACAGACACAGAGGGAAGGGGUUGGGAUGGGAACAGGGUGCACAGCAGGGCGGGGUAGGACCCCAGCCCCU,0.544
GCAGGAAGUAAAAACAAAUGGAAAUGCUUCGGAUAGUGGCAGGGGUGGGGGUUGCUAAGGAAAGGGUGGGAUGGGAGUGGGUCAAGAGUU,-0.14
UGGGAGGUGGAUUUUGUUUAUUUUUUUAGCUCAUUUCCAGGGGUGGGAAAUUUUUUUUAAUAUGUGUCAUGAAUAAAGUUGUUUUUGAAA,-0.121
CCUCAAGUCCUGUGCUACACAUCGUAUGUACCGAAUCGGUGGGUGGGGUGGGGAAAGUAUUAUGUUACGCCGUUCGGAUCUGCACUUCCA,-0.0861
AAGUCCUGUGCUACACAUCGUAUGUACCGAAUCGGAAAGGUUUUUGGAAAAAAAGGAAAGUAUUAUGUUACGCCGUUCGGAUCUGCACUU,-1.22
CCUGUGCUACACAUCGUAUGUACCGAAUCGGAAAAAAGGGGAAAAAAGGGGAAAAAAGGGAAAGUAUUAUGUUACGCCGUUCGGAUCUGC,0.109

# Further values, each from its own experiment
Molecule,target,assay,system,setting,scale,quantity,value
"PhoQ, residues 284 288 289 292 302 303 ASASEQ","PhoP, residues 12 14 15 18 19 IQFRS (Escherichia coli, UniProt P23836)","Sort-seq, refers to: YFP reporter",E. coli,"PhoQ-PhoP variant library, together with: 10 µM Mg2+","baseline: high Mg2+ state, higher = stronger signaling",fold induction,1.3

# Repeated from above (series 2):
Variant,normalised enrichment score
PRARKRLELGNDG [L12D],0.252
PRARKRLELGYLG [N11Y],1.17
PRARKRLEQGNLG [L9Q],0.732
